Measurements collected from several papers.
A part holds a random share of what one study measured.

Block 1
Organism: SARS-CoV-2
Read-out: cytopathic effect
Cell line: Vero E6
Tested at: 10 µM
| SMILES | inhibition [%] |
| --- | --- |
| c1ccc2sc(SSc3nc4ccccc4s3)nc2c1 | 9.8 |
| C[n+]1c2cc(N)ccc2cc2ccc(N)cc21.Nc1ccc2cc3ccc(N)cc3nc2c1 | -26.7 |
| CC[n+]1c(-c2ccccc2)c2cc(N)ccc2c2ccc(N)cc21 | 12.4 |
| O=C(CC1Sc2ncnn2C1=O)Nc1ccc(Br)cc1 (stereo not drawn) | 5 |

Block 2
Target: Interferon regulatory factor 5, full length, phosphomimetic (IRF5, Homo sapiens, UniProt Q13568-2, residues 1-514, S451D/S453D/S456D/S462D)
Technique: protein-binding microarray
Form: double-stranded DNA, one strand shown
Medium: in vitro
Tested at: 940 nM top
Setting: 60-bp whole probe
With: salmon DNA 0.4 mg/ml
Relative to: random background probes
Reading: higher = stronger binding
Constant ends, left off below: GCCTAGCAC … GTGCTAGGTCTTGATTCGCTTGACGCTGCTG
| Sequence | fitted relative affinity [z-score] |
| --- | --- |
| GACGGTATCGTTATCCTGAC | 4.71 |
| TCAAATTCTCTTTTCACACT | 1.13 |
| TCAGAGTTCTGTTGCAAACT | -0.59 |
| GACTGTTTCGGACTGGGGAC | 2.42 |
| TTAGGACTGCTACTGCTTTC | -0.268 |
| GACGCTCTCGGTTTCGGGAC | 7.03 |
| GACGATATCAGTTTCGAAAC | 5.09 |
| AAGAAGCTTCCTCTCTGCCA | -0.115 |

Block 3
Target: Replicase polyprotein 1ab, polymerase (rep, Severe acute respiratory syndrome coronavirus 2, UniProt P0DTD1)
Read-out: enzyme activity
Action: inhibitor
Tested at: 20 µM
| SMILES | inhibition [%] |
| --- | --- |
| CO[C@@H]1[C@H](OC(=O)/C=C/C=C/C=C/C=C/C(=O)O)CC[C@]2(CO2)[C@H]1[C@@]1(C)O[C@@H]1CC=C(C)C | 3.2 |
| CCCCC[C@H](O)/C=C/[C@@H]1[C@@H](C/C=C\CCCC(=O)O)[C@H](O)C[C@H]1O | -0.6 |
| Cn1cccc1/C=C1\C(=O)NC(=O)c2ccccc21 | -2.06 |
| CCC1(c2c[nH]cn2)Cc2ccccc2C1 | -10.5 |
| CO[C@@]1(NC(=O)Cc2cccs2)C(=O)N2C(C(=O)O)=C(COC(N)=O)CS[C@@H]21 | 13.7 |
| CCOc1cc2ncc(C#N)c(Nc3ccc(OCc4ccccn4)c(Cl)c3)c2cc1NC(=O)/C=C/CN(C)C | -4.67 |
| O=C1N[C@H](C(=O)O)CS1 | 0.88 |
| CN/C(=N\c1ccc(C2=NNC(=O)CC2C)cc1)NC#N (stereo not drawn) | -1.89 |
| Nc1nc(OCC2CCCCC2)c2[nH]cnc2n1 | 11.4 |
| NCC(=O)CCC(=O)O | -10.1 |
| Cn1c(=O)c2nc[nH]c2n(C)c1=O | 19.8 |
| CCOc1cc(C(C)(C)C)ccc1C1=N[C@@](C)(c2ccc(Cl)cc2)[C@@](C)(c2ccc(Cl)cc2)N1C(=O)N1CCN(CCCS(C)(=O)=O)CC1 | -0.78 |
| CN1CCN(C(=O)c2cc3cc(Cl)ccc3[nH]2)CC1 | -4.41 |
| CO/N=C(\C(=O)N[C@@H]1C(=O)N2C(C(=O)O)=CCS[C@H]12)c1csc(N)n1 | -3.46 |
| C[N+](C)(C)CC(=O)O | 9.33 |
| OCCN1CCN(CC/C=C2/c3ccccc3Sc3ccc(Cl)cc32)CC1 | -1.75 |
| C=C1/C(=C\C=C2/CCC[C@]3(C)[C@@H]([C@H](C)CCCC(C)C)CC[C@@H]23)C[C@@H](O)C[C@@H]1O | -7.39 |
| COc1ccc(Cl)cc1C(=O)NCCc1ccc(C(=O)O)cc1 | 2.72 |
| CC(=O)OCC(=O)[C@@]1(O)CC[C@H]2[C@@H]3CCC4=CC(=O)C=C[C@]4(C)[C@@]3(Cl)[C@@H](Cl)C[C@@]21C | -6.12 |
| CN1C[C@@H](NS(=O)(=O)N(C)C)C[C@@H]2c3cccc4c3c(cn4C)C[C@H]21 | 0.7 |
| NS(=O)(=O)c1cc(-c2nnn[nH]2)c(NCc2cccs2)cc1Cl | 6.52 |
| CS(=O)(=O)N1CCN(Cc2cc3nc(-c4cccc5[nH]ncc45)nc(N4CCOCC4)c3s2)CC1 | 1.59 |
| CCOC(=O)c1ccccc1OC(N)=O | 1.85 |
| CCn1c(=O)c2c(nc(/C=C/c3ccc(OC)c(OC)c3)n2C)n(CC)c1=O | 2.08 |
| C#Cc1cnc2nc(O)n(C(CC)CC)c2n1 | -6.93 |

Block 4
Target: Histone acetyltransferase KAT6A, winged helix 2, GST fusion (KAT6A, Homo sapiens, UniProt Q92794, residues 85-181)
Technique: protein binding microarray
Form: double-stranded DNA, one strand shown
Medium: in vitro
Tested at: not given
Setting: 8-mer, flanks averaged, mean of 2 arrays, mostly near background
Relative to: not given
Reading: higher = stronger binding
Target sequence (chain): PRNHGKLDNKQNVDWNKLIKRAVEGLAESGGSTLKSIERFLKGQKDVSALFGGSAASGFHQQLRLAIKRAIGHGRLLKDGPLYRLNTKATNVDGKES
| Sequence | E-score |
| --- | --- |
| CTCGAAAG | 0.0937 |
| GCACCATA | -0.048 |
| CAGACTAA | -0.0197 |
| GACTCCGA | -0.0962 |
| AAAGGATA | 0.0154 |
| AGCTTGCG | 0.125 |
| CACACTTA | -0.056 |
| CAGCCAGG | 0.0763 |

Block 5
Target: RNA binding protein fox-1 homolog 2, RRM domain, GST-SBP tag (RBFOX2, Homo sapiens, UniProt O43251-10, residues 100-194)
Technique: RNA Bind-n-Seq
Form: RNA
Medium: in vitro
Tested at: 365 nM
Setting: natural RNA segment, single round, ends assumed
Relative to: no-protein control
Reading: higher = stronger binding
Target sequence (chain): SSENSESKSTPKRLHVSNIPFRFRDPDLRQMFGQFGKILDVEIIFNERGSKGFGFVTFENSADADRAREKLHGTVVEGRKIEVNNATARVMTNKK
| Sequence | RBNS enrichment (R) |
| --- | --- |
| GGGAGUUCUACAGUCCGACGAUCUCUUUUAAGGUGCCUCUUCAGGGACACAGUGUGUCUCUCUGAUUGGGCUUCUAAAUCAAAAGCCUGAUGUUCGUGUCCCUCUCAUAGGGGGAGCUUUGGACACAGGACCAUGGAAUUCUCGGGUGCCAA | 0.305 |
| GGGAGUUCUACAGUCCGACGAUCAAUCUUUUCUGGUUCUUUACAGUUUGUUGUUUUGUUUUGAUCCAAGCUUAGUUUGUUACUAUGUGUGAUUUAGCAUCUGUCGCACUUGUGUAAAUAUGGAGUAAGUAUUGUGGAAUUCUCGGGUGCCAA | 14.6 |
| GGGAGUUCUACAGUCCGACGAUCGCUCCAGACAGACUUACAGAUGCCUUCCUUAGGAGUUCUUGCUUCUUGCGUUGAUACUUUGCCCCAGAAAGGCCUGGGAUUCAUUCUGGUUCUUAUCAGGGUGUGUCCACUGGAAUUCUCGGGUGCCAA | 0.221 |
| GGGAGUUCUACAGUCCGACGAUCUUCUUUUGAAUGGAUUUAUGCUGUCUUAGCAAUAUGACAAUAAUCCUCUGUAGCUUGAGCUACCCCUCCCCUGCUGUAACUUACGUGACCUGUGCUGUCACUGGGCAUAGUGGAAUUCUCGGGUGCCAA | 0.328 |
| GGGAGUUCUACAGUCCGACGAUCUGGGUGAAAGUGGUUCUAGAAACUGCACUGAAUAGUAGUAAAGCAAUAAGGCCCAAUUCAUCCCACAGCACUGAUCAUCUUUUAAUAUCCCACCCUAAGCGAACGGUAAGUGGAAUUCUCGGGUGCCAA | 0.405 |
| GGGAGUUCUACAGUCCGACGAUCUCUGUAUCAGUGGAUUUCCCAUCCCCUGUGGGAAAUUAGUAGGCUCAUUUACUGUUUUAGGUCUAGCCUAUGUGGAUUUUUUCCUAACAUACCUAAGCAAACCCAGUGUCUGGAAUUCUCGGGUGCCAA | 0.312 |
| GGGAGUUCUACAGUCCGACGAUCACUCUCAGAAAAUGACACUCUUCCCACAUGUGGGGUUUUCUCAGUGUUCUAAGUUUUUAAGAAGUUUUAUCUUGUGUAUUUGCAUCAAACAUUUCUUUAUGUGCUAAAUGUGGAAUUCUCGGGUGCCAA | 0.459 |
| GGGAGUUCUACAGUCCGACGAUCUAAAGGUCAAAAAAGCAAUCCAACCCACUGCAGAAGCUCUUUUUGAGCACUUGGUGGCAUCAGAGCAGGAGGAGCCCCAGAGCCACCUCUGGUGUCCCCCCAGGCUACCUUGGAAUUCUCGGGUGCCAA | 0.389 |

Block 6
Cell line: HEK-293T/ACE2
Tested at: concentration not given
Time: 16 (unit not given)
Relative to: vehicle
| Compound | viability [%] |
| --- | --- |
| N#Cc1ccc(C(c2ccc(C#N)cc2)n2cncn2)cc1 | 101 |
| C[C@]12C=CC(=O)N[C@@H]1CC[C@@H]1[C@@H]2CC[C@]2(C)[C@@H](C(=O)Nc3cc(C(F)(F)F)ccc3C(F)(F)F)CC[C@@H]12 | 104 |
| CCCNS(=O)(=O)Nc1ncnc(OCCOc2ncc(Br)cn2)c1-c1ccc(Br)cc1 | 98.9 |
| COc1c(C)c2c(c(O)c1C/C=C(\C)CCC(=O)OCCN1CCOCC1)C(=O)OC2 | 84.3 |

For quick reference, copied from above (block 2):
| Sequence | fitted relative affinity [z-score] |
| --- | --- |
| AAGAAGCTTCCTCTCTGCCA | -0.115 |
| TTAGGACTGCTACTGCTTTC | -0.268 |
| GACTGTTTCGGACTGGGGAC | 2.42 |
| GACGCTCTCGGTTTCGGGAC | 7.03 |
| GACGGTATCGTTATCCTGAC | 4.71 |
| GACGATATCAGTTTCGAAAC | 5.09 |
| TCAGAGTTCTGTTGCAAACT | -0.59 |
| TCAAATTCTCTTTTCACACT | 1.13 |
